Results gathered from unrelated publications.
Each line is one published result; not all experiments were run side by side. Several values in a cell are separate wells, animals, samples, runs or records. ± gives the spread as reported.

Compound | test | system | conditions | scale | endpoint | result
CC[C@H](C)[C@H](NC(=O)[C@H](Cc1ccc(O)cc1)NC(=O)[C@H](CCC(=O)O)NC(=O)CNC(=O)[C@H](CCC(=O)O)NC(=O)[C@H](CCCCN)NC(=O)[C@H](CCCCN)NC(=O)[C@H](CC(=O)O)NC(=O)[C@H](Cc1c[nH]cn1)NC(=O)[C@H](Cc1c[nH]cn1)NC(=O)[C@H](Cc1c[nH]cn1)NC(=O)[C@H](Cc1c[nH]cn1)NC(=O)[C@H](Cc1c[nH]cn1)NC(=O)[C@H](Cc1c[nH]cn1)NC(=O)[C@H](Cc1c[nH]cn1)NC(=O)[C@H](Cc1c[nH]cn1)NC(=O)[C@H](Cc1c[nH]cn1)NC(=O)[C@@H](N)Cc1c[nH]cn1)C(=O)N[C@@H](CCCCN)C(=O)N[C@@H](CC(C)C)C(=O)N[C@@H](CCCCN)C(=O)N[C@H](C(=O)N[C@H](C(=O)NCC(=O)N[C@@H](CCC(N)=O)C(=O)N[C@@H](CC(=O)O)C(=O)N[C@@H](CO)C(=O)N[C@@H](CO)C(=O)N[C@@H](CCC(=O)O)C(=O)N[C@H](C(=O)N[C@@H](Cc1c[nH]cn1)C(=O)N[C@@H](Cc1ccccc1)C(=O)N[C@@H](CCCCN)C(=O)N[C@H](C(=O)N[C@@H](CCCCN)C(=O)N[C@@H](CCSC)C(=O)N[C@H](C(=O)N[C@H](C(=O)N[C@@H](Cc1c[nH]cn1)C(=O)N[C@@H](CC(C)C)C(=O)N[C@@H](CCCCN)C(=O)N[C@@H](CCCCN)C(=O)N[C@@H](CC(C)C)C(=O)N[C@@H](CCCCN)C(=O)N[C@@H](CCC(=O)O)C(=O)N[C@@H](CO)C(=O)N[C@@H](Cc1ccc(O)cc1)C(=O)N[C@@H](CS)C(=O)N[C@@H](CCC(N)=O)C(=O)N[C@@H](CCCNC(=N)N)C(=O)N[C@@H](CCC(N)=O)C(=O)O)[C@@H](C)O)[C@@H](C)O)C(C)C)[C@@H](C)CC)[C@@H](C)CC)C(C)C |  | Drosophila α-synuclein A53T transgenic | 120 µM, 1 day post eclosion, unit not given | baseline: untreated | climbing mean difference | 2
COc1c(Cl)cccc1Nc1c(-c2ccncc2C#C[C@@]2(C)CCCN2C(=O)/C=C/CN(C)C)[nH]c2c1C(=O)NCC2 |  | female BALB/c nude mouse, sample A PDX | 25 mg/kg once daily, 28 days, EGFR ASV |  | tumour growth inhibition | 123%
COC1OC(C)C(OC2OC(C)C(OS(=O)(=O)O)C(OC3OC(C)C(OC4OC(C)C(OS(=O)(=O)O)C(OC5OC(C)C(OC6OC(C)C(OS(=O)(=O)O)C(OC7OC(C)C(OC8OC(C)C(OS(=O)(=O)O)C(OC9OC(C)C(OC%10OC(C)C(OS(=O)(=O)O)C(OC%11OC(C)C(OS(=O)(=O)O)C(OS(=O)(=O)O)C%11O)C%10O)C(OS(=O)(=O)O)C9O)C8O)C(OS(=O)(=O)O)C7O)C6O)C(OS(=O)(=O)O)C5O)C4O)C(OS(=O)(=O)O)C3O)C2O)C(OS(=O)(=O)O)C1O (stereo not drawn) |  | human plasma | 128 µg/mL | baseline: control | thrombin time prolongation | 1 fold
OO |  | pancreatic islet cells, mouse | 125 µM, 24 h |  | live cells | 4.6%
COc1cc(O)ccc1CCC(c1ccc(O)cc1)c1cc2c(c(C)c1O)OC(c1ccc(O)cc1)CC2 (mixture of isomers) | item: PGE2 | human blood | 0.3 µM, added: Escherichia coli stimulation |  | lipid mediator level | 952 ± 476 pg/mL blood
COC1OC(C)C(OC2OC(C)C(O)C(OS(=O)(=O)O)C2OS(=O)(=O)O)C(OS(=O)(=O)O)C1OS(=O)(=O)O (stereo not drawn) |  | human plasma | 128 µg/mL | baseline: control | thrombin time prolongation | 0.9 fold
Cc1ccc(N(O)/N=N/c2ccc(S(=O)(=O)Nc3nccs3)cc2)cc1 | carrageenan-induced paw edema | Wistar rat | oral, 100 mg/kg, 4 h after carrageenan, added: carrageenan 1% subplantar | higher = more edema | paw edema volume | 4.6 ± 0.52 a.u.
NC[C@@H](C(=O)Nc1ccc(-c2cn[nH]c2)cc1)c1ccccc1 | tonometry | NZW rabbit, magnetic bead-induced ocular hypertension | ocular, 0.1%, 24 h |  | IOP | 36.9 mmHg
O=C(N[C@@H](Cc1ccc(OCCCCC2CCNCC2)cc1)C(=O)O)c1nc2ccccc2o1.O=C(O)C(F)(F)F | platelet aggregation, inhibitor, impedance aggregometry | human, whole blood, 1:1 saline | 100 nM, 6 min, 37 °C, added: ADP 20 µM | higher = more aggregation | aggregation impedance AUC | 16 a.u. and 11.7 a.u. and 32.3 a.u. and 22.2 a.u.
CN1CCC[C@]1(C)/C=C/S(=O)(=O)NC(=O)Nc1c2c(cc3c1CCC3)CCC2 |  | human, whole blood ex vivo | 100 mg twice daily, day 1, 3 h, multiple ascending dose, added: LPS and ATP |  | IL-1β inhibition | 99%
COC1OC(C)C(OC2OC(C)C(OS(=O)(=O)O)C(OC3OC(C)C(OC4OC(C)C(OS(=O)(=O)O)C(OC5OC(C)C(OC6OC(C)C(OS(=O)(=O)O)C(OC7OC(C)C(OC8OC(C)C(OS(=O)(=O)O)C(OS(=O)(=O)O)C8O)C(OS(=O)(=O)O)C7O)C6O)C(OS(=O)(=O)O)C5O)C4O)C(OS(=O)(=O)O)C3O)C2O)C(OS(=O)(=O)O)C1O (stereo not drawn) |  | human plasma | 128 µg/mL |  | thrombin time | 10.8 ± 0.8 s
COC1CN([C@H]2CC[C@H]([C@@]3(C)Oc4c(Cl)cc(C(=O)NCc5c(SC)cc(C)[nH]c5=O)c(C)c4O3)CC2)C1 | RNA-seq, item: CCM2L mouse homolog | mouse, HT-1376 xenograft, whole blood | dose not given | baseline: vehicle | log2 fold change | 0.0911
COC1OC(C)C(OC2OC(C)C(OS(=O)(=O)O)C(OC3OC(C)C(OS(=O)(=O)O)C(OS(=O)(=O)O)C3OS(=O)(=O)O)C2OS(=O)(=O)O)C(OS(=O)(=O)O)C1OS(=O)(=O)O (stereo not drawn) |  | human plasma | 128 µg/mL | baseline: control | thrombin time prolongation | 1 fold
O=CCNCCOn1c(=O)n(OCCNCCO)c(=O)n(OCCNCCOn2c(=O)n(OCCNCCO)c(=O)n(OCCNCCO)c2=O)c1=O | DPPH scavenging |  | 500 µg/mL |  | inhibition | 33.2%
COC1OC(C)C(OC2OC(C)C(OS(=O)(=O)O)C(OC3OC(C)C(OC4OC(C)C(OS(=O)(=O)O)C(OC5OC(C)C(OC6OC(C)C(OS(=O)(=O)O)C(OC7OC(C)C(OS(=O)(=O)O)C(OS(=O)(=O)O)C7O)C6O)C(OS(=O)(=O)O)C5O)C4O)C(OS(=O)(=O)O)C3O)C2O)C(OS(=O)(=O)O)C1O (stereo not drawn) |  | human plasma | 128 µg/mL | baseline: control | thrombin time prolongation | 1 fold
Cc1cn(-c2cc(NC(=O)c3cc(C#Cc4cnc5c(Nc6cnn(C)c6)cccn45)c(C)cc3F)cc(C(C)(C)C#N)c2)cn1 | platelet aggregation | platelet-rich plasma | 1 µM, DMSO 100, added: collagen 2 mg/mL |  | aggregation | 74.5%
COC1OC(C)C(O)C(OC2OC(C)C(O)C(OS(=O)(=O)O)C2OS(=O)(=O)O)C1OS(=O)(=O)O (stereo not drawn) |  | human plasma | 128 µg/mL |  | thrombin time | 10.6 ± 0.5 s
COc1cc2c(NC3CCN(C(C)C)CC3)cc(N3CCOCC3)nc2cc1OCCCN1CCCC1 | TMT quantitative proteomics, item: GOT1 (cytoplasmic) | FAD AD model mice, hippocampus | dose not given |  | normalised protein abundance | -0.062 and -0.0892 and -0.0827 and -0.0683 and -0.0717 and -0.0822 and -0.08

Some of these lines once more:
Compound | test | system | conditions | scale | endpoint | result
COc1cc2c(NC3CCN(C(C)C)CC3)cc(N3CCOCC3)nc2cc1OCCCN1CCCC1 | TMT quantitative proteomics, item: GOT1 (cytoplasmic) | FAD AD model mice, hippocampus | dose not given |  | normalised protein abundance | -0.062 and -0.0892 and -0.0827 and -0.0683 and -0.0717 and -0.0822 and -0.08
Cc1ccc(N(O)/N=N/c2ccc(S(=O)(=O)Nc3nccs3)cc2)cc1 | carrageenan-induced paw edema | Wistar rat | oral, 100 mg/kg, 4 h after carrageenan, added: carrageenan 1% subplantar | higher = more edema | paw edema volume | 4.6 ± 0.52 a.u.
CN1CCC[C@]1(C)/C=C/S(=O)(=O)NC(=O)Nc1c2c(cc3c1CCC3)CCC2 |  | human, whole blood ex vivo | 100 mg twice daily, day 1, 3 h, multiple ascending dose, added: LPS and ATP |  | IL-1β inhibition | 99%
